Measurements gathered from unrelated publications.
A part holds a random share of what one study measured. ≈ marks a conversion by molar mass, not a printed value.

Block 1
SMILES: Fc1ccccc1Cc1nc(-c2nc(C(F)(F)F)n[nH]2)cn2ccnc12
Species: healthy volunteers
Notes: single ascending dose
Reference: placebo
setting | word recall correct number
0.3 mg | -0.5
20 mg | 2.5
1 mg | -4
50 mg | -2.5

Block 2
Structure (SMILES): CO/N=C(\C(=O)N[C@@H]1C(=O)N2C(C(=O)O)=C(COC(C)=O)CS[C@H]12)c1csc(N)n1
Organism: Pseudomonas aeruginosa
test | test system | MIC
– | clinical isolate RKI-No_254/15 | > 16 µg/mL
– | clinical isolate RKI-No_579/15 | > 16 µg/mL
broth microdilution | clinical isolate RKI-No 483/15-1 | 8 µg/mL (≈ 17.6 µM)
– | clinical isolate RKI-No_482/15 | > 16 µg/mL
– | clinical isolate RKI-No_496/15 | > 16 µg/mL
– | clinical isolate RKI-No_502/15 | > 16 µg/mL
– | clinical isolate RKI-No_578/15 | > 16 µg/mL
– | clinical isolate RKI-No_484/15 | > 16 µg/mL

Single results of other studies
SMILES | target or system | test | test system | setting | scale | measurement | value
CCCc1nn(C)c2c(=O)[nH]c(-c3cc(S(=O)(=O)N4CCN(C)CC4)ccc3OCC)nc12 | – | – | human, plasma | oral, 100 mg, geometric mean, with: vericiguat | – | AUC(0-22) | 1390 ng·h/mL
[Mg+2] | uncharacterized protein (Bacteroides thetaiotaomicron, UniProt Q8A183) | phosphatase activity, activator, phosphate release | – | 5 mM, EDTA-treated enzyme, with: substrate 20 mM | reference: activity with this ion | relative specific activity | 1
COC(=O)Nc1c(N)nc(-c2nn(Cc3ccccc3F)c3ncc(F)cc23)nc1N | – | – | healthy male humans, plasma | oral, 2.5 mg, phase I DDI study, alone | – | AUC(0-24) | 975 ng·h/mL
N#CCC1CCN(c2nc(Nc3ccc(N4CCC(O)CC4)cc3)c3c(=O)[nH]ncc3n2)CC1 | – | vs placebo, Olink multiplex | human, serum | 80 mg, day 29, unit not given | reference: placebo | IL-18 level difference | -1.67
C[C@H]1O[C@@H](O[C@H]2[C@@H](O)C[C@H](O[C@H]3[C@@H](O)C[C@H](O[C@H]4CC[C@@]5(C)[C@H](CC[C@@H]6[C@@H]5C[C@@H](O)[C@]5(C)[C@@H](C7=CC(=O)OC7)CC[C@]65O)C4)O[C@@H]3C)O[C@@H]2C)C[C@H](O)[C@@H]1O | – | – | human, plasma | dose not given, geometric mean, with: vericiguat | – | Ctrough | 0.687 ng/mL
CC1COc2ccccc2N1C(=O)C(Cl)Cl (stereo not drawn) | glutathione S-transferase | – | female rhesus monkey liver cytosol | 5 µM, 30 min, pH 7.4, with: GSH | – | enantiomeric fraction | 0

A few entries again (single results of other studies):
SMILES | target or system | test | test system | setting | scale | measurement | value
N#CCC1CCN(c2nc(Nc3ccc(N4CCC(O)CC4)cc3)c3c(=O)[nH]ncc3n2)CC1 | – | vs placebo, Olink multiplex | human, serum | 80 mg, day 29, unit not given | reference: placebo | IL-18 level difference | -1.67
C[C@H]1O[C@@H](O[C@H]2[C@@H](O)C[C@H](O[C@H]3[C@@H](O)C[C@H](O[C@H]4CC[C@@]5(C)[C@H](CC[C@@H]6[C@@H]5C[C@@H](O)[C@]5(C)[C@@H](C7=CC(=O)OC7)CC[C@]65O)C4)O[C@@H]3C)O[C@@H]2C)C[C@H](O)[C@@H]1O | – | – | human, plasma | dose not given, geometric mean, with: vericiguat | – | Ctrough | 0.687 ng/mL
CC1COc2ccccc2N1C(=O)C(Cl)Cl (stereo not drawn) | glutathione S-transferase | – | female rhesus monkey liver cytosol | 5 µM, 30 min, pH 7.4, with: GSH | – | enantiomeric fraction | 0
